Experimental data from different studies.
Parts stem from different laboratories: compare values within a part only. Substitutions count along the parent as printed.

Block 1
Target: Prothrombin, mature alpha-thrombin (F2, Homo sapiens, UniProt P00734)
Method: aptamer microarray, sandwich
Form: DNA with 2'F-ANA
Medium: in vitro
Concentration: 200 nM
Notes: whole 15-mer aptamer, many near background
With: Cy3 exosite-II aptamer, 400 nM
Direction: higher = stronger binding
Strand: GGTTGGTGTGGTTGG
Modification	mean fluorescence intensity
2'F-ANA at 2 4 5 7 8 10 14 15	82.1 a.u.
2'F-ANA at 1 2 7 8 10 12 14	46.4 a.u.
2'F-ANA at 2 4 7 14	141 a.u.
2'F-ANA at 1 2 5 6 7 9 10 12 13	57 a.u.
2'F-ANA at 1 2 4 5 6 7 8 11 13 14	49.4 a.u.
2'F-ANA at 1 5 8 10 13 15	55.2 a.u.
2'F-ANA at 4 5 6 8 10 12 14 15	69.7 a.u.
2'F-ANA at 5 7 8 11 15	121 a.u.
2'F-ANA at 1 2 4 5 7 9 10 13 15	47.2 a.u.
2'F-ANA at 3 4 6 7 8 10 13 14	170 a.u.
2'F-ANA at 2 3 4 7 8 9 10 12 13 15	254 a.u.
2'F-ANA at 4 6 8 9 11 12 13 14	73 a.u.
2'F-ANA at 1 3 6 9 10 12 13	99.9 a.u.
2'F-ANA at 2 5 8 9 10 11	55 a.u.
2'F-ANA at 1 6 7 9 10 14	70.2 a.u.
2'F-ANA at 1 2 3 5 10 12 14 15	74.8 a.u.
2'F-ANA at 1 3 5 7 8 11 15	61.5 a.u.
2'F-ANA at 2 3 5 8 9 10 12 13 14 15	53.3 a.u.
2'F-ANA at 2 5 6 8 15	76.2 a.u.
2'F-ANA at 1 2 4 5 6 7 9 10 12 14 15	53.8 a.u.
2'F-ANA at 4 5 6 7 8 9 11 15	59.7 a.u.
2'F-ANA at 3 6 13	768 a.u.
2'F-ANA at 1 2 3 5 8 11 12 13 14 15	52.5 a.u.
2'F-ANA at 1 3 4 5 9 11 13 14	48.2 a.u.
2'F-ANA at 3 4 6 7 8 9 11 12 14	298 a.u.

Block 2
Target: CCNA2, cyclin fold, Cln2 fusion (human)
Method: yeast growth competition, sequencing
Medium: yeast
Notes: strong parent motif
Relative to: not given
Direction: higher = stronger binding
Starting sequence: CDKN1B docking peptide (human); PSACRNLFGPVDH; partner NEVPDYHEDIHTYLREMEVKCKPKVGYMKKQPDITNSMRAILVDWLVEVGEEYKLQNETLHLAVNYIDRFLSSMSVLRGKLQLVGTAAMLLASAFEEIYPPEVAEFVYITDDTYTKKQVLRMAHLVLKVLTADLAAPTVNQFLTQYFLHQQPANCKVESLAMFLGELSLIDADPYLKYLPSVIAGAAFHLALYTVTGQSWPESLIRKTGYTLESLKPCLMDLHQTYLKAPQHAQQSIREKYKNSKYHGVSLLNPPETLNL
Variant	normalised enrichment score
PSACLNLFGPVDH [R5L]	0.195
PSACRNLFGPVYH [D12Y]	3.81
PSACRNLFGIVDH [P10I]	2.92
PSTCRNLFGPVDH [A3T]	1.6
PSAQRNLFGPVDH [C4Q]	2.01
PSACRNLFGHVDH [P10H]	3.13
PSACRNLFGEVDH [P10E]	3.17
ASACRNLFGPVDH [P1A]	3.84
PSACRNLMGPVDH [F8M]	0.272
PSACRNLSGPVDH [F8S]	0.809
PAACRNLFGPVDH [S2A]	3.85
PSACRNLFGPYDH [V11Y]	4.21
PSACRNEFGPVDH [L7E]	-0.0895
PSAMRNLFGPVDH [C4M]	1.19
PSACRNLFGPVTH [D12T]	3.72
PSACENLFGPVDH [R5E]	0.379
PSACRNLFGPWDH [V11W]	4.13
PSACVNLFGPVDH [R5V]	0.067
PSACRNLFGPVCH [D12C]	3.78
PSASRNLFGPVDH [C4S]	2.33
PSACKNLLGPVDH [R5K F8L]	0.445
PSACRNLFGPVDM [H13M]	3.49
PSAFRNLFGPVDH [C4F]	1.43
PSACRNLFGPVDA [H13A]	4.31
PSACRNLFGPVIH [D12I]	3.48

Block 3
Target: Histone acetyltransferase KAT6A, both winged helices, GST fusion (KAT6A, Homo sapiens, UniProt Q92794, residues 1-181)
Method: protein binding microarray
Form: double-stranded DNA, one strand shown
Medium: in vitro
Concentration: not given
Notes: 8-mer, flanks averaged, mean of 2 arrays, mostly near background
Relative to: not given
Direction: higher = stronger binding
Residues (chain): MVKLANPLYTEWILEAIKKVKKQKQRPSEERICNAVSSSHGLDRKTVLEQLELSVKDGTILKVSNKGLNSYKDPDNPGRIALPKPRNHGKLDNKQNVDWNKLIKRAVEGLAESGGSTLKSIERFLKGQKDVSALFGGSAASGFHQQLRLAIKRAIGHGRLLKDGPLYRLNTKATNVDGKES
Strand	E-score
TGTATGAA	0.0666
ATCCCATC	-0.158
ATAATTAA	-0.0649
AGGCATGA	-0.172
GGCGGGCA	0.277
ACGGGATG	0.2
CTCTGATA	-0.106
CCTGTATC	0.0295
CAGACGGA	0.102
CTCAACAC	-0.00134
ACGGGCCA	0.0742
ACAGCTAG	-0.116
CCGCCTTA	0.178
AAACACGA	-0.0962
CGAGAGCC	0.0301
AGCCACGA	-0.143
ATATGGCG	0.147
AGATTATC	-0.0688

Block 4
Target: CEBPB, bZIP domain (human)
Method: DHFR protein complementation
Medium: yeast
Notes: single substitutions, most at no-binding floor
Relative to: wild-type JUN-FOS pair
Direction: higher = stronger binding
Starting sequence: JUN, bZIP domain (human); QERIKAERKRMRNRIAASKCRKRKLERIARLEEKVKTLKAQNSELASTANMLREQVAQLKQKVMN; partner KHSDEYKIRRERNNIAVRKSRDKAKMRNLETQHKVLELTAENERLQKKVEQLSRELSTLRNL
Variant	binding fitness [natural log]
E54G	-1.35
E44V	-1.35
Q55R	-1.42
M51A	-1.17
N42E	-1.55
Q55L	-1.39
I28K	-1.07
A29I	-1.41
Q41A	-1.35
L52A	-1.46
E44I	-1.4
E44G	-1.47
K34L	-1.15
S47E	-1
N42H	-1.47
E32K	-1.4
K39P	-1.52
S43P	-1.46
Q41T	-1.38
L38E	-1.5
E32H	-1.31
E33G	-1.41
L31Q	-1.31
K39A	-1.38
V56L	-1.35

Block 5
Target: ABI1, truncated, D143A, DHFR fusion (Arabidopsis thaliana)
Method: DHFR PCA, deep sequencing
Medium: yeast
Notes: methotrexate growth selection, single substitutions
With: (+)-ABA 0.032 µM
Relative to: wild-type fitted maximum
Direction: higher = stronger binding
Starting sequence: PYL1, truncated, DHFR fusion (Arabidopsis thaliana); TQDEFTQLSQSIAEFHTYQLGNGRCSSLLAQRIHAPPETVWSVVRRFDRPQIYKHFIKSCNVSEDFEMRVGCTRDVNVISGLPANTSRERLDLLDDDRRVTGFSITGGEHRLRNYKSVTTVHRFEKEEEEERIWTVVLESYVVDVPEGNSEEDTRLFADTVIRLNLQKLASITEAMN; partner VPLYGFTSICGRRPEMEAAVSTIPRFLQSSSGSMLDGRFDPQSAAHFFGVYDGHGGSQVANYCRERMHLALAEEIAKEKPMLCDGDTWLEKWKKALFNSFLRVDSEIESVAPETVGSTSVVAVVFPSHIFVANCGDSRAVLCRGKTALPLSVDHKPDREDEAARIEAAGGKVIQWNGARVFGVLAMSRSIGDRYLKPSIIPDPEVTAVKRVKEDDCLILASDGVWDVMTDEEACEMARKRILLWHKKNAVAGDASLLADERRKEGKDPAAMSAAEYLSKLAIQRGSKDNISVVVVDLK
Variant	relative binding score
R32E	26.5%
V76M	8%
P83G	55.2%
F47P	-1.17%
E129G	55.2%
V142G	-2.81%
E130I	16.6%
N61W	11.5%
A158Y	19.7%
N114Y	4.44%
A170Y	-15.7%
F124P	-0.327%
K58H	14.3%
T39A	23.7%
V137C	0.0131%
I105E	0.792%
E125P	34.8%
R49I	-3.19%
V76F	-9.5%

Excerpt of the above (block 2):
Variant	normalised enrichment score
ASACRNLFGPVDH [P1A]	3.84
PSACRNLFGHVDH [P10H]	3.13
PSAQRNLFGPVDH [C4Q]	2.01
PSACLNLFGPVDH [R5L]	0.195
PSACENLFGPVDH [R5E]	0.379
PSACRNLFGPVDA [H13A]	4.31
